Published values of several laboratories.
Values joined by “and” are separate records of one study, mostly repeats; a detail may differ.
gag-pol integrase: Gag-Pol polyprotein, integrase (gag-pol, Human immunodeficiency virus type 1 group M subtype B, UniProt P04585)
SLC6A19: Sodium-dependent neutral amino acid transporter B(0)AT1 (SLC6A19, Homo sapiens, UniProt Q695T7)
UniProt Q695T7, sequence (whole entry, looked up): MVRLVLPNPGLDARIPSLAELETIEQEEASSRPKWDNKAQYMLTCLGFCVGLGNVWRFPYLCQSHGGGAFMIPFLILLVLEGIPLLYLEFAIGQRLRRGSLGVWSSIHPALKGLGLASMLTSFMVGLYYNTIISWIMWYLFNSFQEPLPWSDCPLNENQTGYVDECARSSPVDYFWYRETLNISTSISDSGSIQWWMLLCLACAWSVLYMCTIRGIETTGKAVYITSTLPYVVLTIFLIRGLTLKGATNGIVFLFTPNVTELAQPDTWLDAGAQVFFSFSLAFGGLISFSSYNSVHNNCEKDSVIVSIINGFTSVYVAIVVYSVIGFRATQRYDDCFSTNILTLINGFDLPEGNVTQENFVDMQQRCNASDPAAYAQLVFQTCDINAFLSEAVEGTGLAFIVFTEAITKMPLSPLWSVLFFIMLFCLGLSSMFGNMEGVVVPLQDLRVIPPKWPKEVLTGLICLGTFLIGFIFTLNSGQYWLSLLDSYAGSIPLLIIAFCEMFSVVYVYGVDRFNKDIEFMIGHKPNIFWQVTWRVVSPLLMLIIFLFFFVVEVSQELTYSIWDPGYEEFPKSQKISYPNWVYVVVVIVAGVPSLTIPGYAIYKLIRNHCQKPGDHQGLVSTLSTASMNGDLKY
FER: Tyrosine-protein kinase Fer (FER, Homo sapiens, UniProt P16591)
UniProt P16591, sequence (whole entry, looked up): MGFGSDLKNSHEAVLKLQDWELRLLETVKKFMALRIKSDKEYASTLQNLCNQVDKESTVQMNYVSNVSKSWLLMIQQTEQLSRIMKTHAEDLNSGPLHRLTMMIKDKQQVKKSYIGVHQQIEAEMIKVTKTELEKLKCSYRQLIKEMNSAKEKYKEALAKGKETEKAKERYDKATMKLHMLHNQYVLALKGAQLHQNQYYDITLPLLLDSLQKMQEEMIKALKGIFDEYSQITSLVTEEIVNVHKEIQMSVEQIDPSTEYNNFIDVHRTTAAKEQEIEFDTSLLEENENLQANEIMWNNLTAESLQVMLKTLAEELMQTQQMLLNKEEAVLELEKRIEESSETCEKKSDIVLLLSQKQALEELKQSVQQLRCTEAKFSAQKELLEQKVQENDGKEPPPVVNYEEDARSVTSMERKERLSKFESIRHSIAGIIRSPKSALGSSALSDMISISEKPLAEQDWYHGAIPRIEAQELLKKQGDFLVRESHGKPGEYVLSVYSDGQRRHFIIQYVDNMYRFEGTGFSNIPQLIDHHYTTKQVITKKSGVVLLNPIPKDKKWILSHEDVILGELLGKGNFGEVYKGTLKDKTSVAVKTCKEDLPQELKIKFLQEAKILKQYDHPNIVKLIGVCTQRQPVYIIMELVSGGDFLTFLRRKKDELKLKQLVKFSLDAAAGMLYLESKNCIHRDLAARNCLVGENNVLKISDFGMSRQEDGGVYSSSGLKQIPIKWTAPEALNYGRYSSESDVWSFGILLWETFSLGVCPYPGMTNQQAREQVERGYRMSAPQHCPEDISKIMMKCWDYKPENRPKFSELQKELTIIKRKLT
GRK2: Beta-adrenergic receptor kinase 1 (GRK2, Homo sapiens, UniProt P25098)
UniProt Q92626, sequence (whole entry, looked up): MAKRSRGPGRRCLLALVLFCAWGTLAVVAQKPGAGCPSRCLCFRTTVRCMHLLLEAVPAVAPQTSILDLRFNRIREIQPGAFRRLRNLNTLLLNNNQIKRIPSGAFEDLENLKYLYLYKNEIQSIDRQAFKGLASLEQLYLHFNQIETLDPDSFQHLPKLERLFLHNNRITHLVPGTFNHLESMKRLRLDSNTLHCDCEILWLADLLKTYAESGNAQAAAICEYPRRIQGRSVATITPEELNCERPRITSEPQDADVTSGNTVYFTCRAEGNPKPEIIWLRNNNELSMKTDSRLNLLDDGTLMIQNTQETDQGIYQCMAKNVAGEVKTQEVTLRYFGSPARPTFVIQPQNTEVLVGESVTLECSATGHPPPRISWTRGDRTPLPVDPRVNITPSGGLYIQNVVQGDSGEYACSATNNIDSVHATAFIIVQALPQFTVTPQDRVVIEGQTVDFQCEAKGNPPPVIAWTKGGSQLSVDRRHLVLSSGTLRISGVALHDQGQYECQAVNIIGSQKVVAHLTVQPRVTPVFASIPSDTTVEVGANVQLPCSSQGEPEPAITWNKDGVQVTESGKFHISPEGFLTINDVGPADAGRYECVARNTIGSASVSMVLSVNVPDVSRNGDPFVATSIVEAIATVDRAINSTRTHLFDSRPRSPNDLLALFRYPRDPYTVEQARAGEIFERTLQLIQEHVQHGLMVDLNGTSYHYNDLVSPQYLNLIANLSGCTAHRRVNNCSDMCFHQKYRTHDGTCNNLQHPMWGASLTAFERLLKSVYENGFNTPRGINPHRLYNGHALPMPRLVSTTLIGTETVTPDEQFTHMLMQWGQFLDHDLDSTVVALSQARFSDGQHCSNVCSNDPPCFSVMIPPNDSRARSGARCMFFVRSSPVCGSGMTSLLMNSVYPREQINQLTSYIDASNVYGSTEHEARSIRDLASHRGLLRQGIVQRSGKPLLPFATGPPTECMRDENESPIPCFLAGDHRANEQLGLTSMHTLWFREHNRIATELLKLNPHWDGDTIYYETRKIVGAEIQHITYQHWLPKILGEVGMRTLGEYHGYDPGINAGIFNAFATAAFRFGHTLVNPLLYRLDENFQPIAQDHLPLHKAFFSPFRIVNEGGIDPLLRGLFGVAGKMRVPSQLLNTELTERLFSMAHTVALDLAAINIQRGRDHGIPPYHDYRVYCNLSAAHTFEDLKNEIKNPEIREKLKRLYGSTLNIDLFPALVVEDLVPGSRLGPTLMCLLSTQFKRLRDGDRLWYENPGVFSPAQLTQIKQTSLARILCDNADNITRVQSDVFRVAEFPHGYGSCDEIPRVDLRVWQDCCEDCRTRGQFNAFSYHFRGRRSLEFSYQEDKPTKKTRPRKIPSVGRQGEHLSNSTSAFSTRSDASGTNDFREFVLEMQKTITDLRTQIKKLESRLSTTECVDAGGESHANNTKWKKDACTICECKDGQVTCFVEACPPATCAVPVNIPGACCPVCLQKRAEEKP
UniProt P25098, sequence (whole entry, looked up): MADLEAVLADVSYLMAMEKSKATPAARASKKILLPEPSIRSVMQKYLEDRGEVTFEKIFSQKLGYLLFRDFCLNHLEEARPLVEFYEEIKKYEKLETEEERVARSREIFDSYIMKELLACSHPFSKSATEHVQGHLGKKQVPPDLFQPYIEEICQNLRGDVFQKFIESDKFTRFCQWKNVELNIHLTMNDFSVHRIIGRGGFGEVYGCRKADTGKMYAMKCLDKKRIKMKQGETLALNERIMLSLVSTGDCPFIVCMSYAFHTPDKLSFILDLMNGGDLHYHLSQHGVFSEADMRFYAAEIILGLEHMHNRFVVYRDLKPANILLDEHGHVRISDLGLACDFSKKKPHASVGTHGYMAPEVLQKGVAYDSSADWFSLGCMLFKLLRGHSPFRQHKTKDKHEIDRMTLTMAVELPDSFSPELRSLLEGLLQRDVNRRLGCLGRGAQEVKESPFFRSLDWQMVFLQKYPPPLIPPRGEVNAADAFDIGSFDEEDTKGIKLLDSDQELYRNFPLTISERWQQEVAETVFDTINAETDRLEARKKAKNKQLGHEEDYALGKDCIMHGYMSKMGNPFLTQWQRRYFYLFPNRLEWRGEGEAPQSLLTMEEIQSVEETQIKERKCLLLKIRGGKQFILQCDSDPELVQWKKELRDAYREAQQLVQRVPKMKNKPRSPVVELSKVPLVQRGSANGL
UniProt Q9HBH9, sequence (whole entry, looked up): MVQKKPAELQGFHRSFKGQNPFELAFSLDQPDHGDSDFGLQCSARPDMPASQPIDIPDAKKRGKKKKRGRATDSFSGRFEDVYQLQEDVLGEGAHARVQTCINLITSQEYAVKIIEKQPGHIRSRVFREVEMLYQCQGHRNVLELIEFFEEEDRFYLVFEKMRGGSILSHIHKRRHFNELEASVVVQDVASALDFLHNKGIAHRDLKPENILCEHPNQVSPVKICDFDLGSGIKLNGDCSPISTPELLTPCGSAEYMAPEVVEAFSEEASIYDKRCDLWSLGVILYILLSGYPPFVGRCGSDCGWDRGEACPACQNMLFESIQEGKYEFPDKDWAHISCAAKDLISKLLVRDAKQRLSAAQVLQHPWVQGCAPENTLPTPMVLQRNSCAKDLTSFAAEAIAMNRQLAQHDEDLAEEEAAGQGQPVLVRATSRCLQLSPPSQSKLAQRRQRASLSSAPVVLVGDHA
UniProt Q9BUB5, sequence (whole entry, looked up): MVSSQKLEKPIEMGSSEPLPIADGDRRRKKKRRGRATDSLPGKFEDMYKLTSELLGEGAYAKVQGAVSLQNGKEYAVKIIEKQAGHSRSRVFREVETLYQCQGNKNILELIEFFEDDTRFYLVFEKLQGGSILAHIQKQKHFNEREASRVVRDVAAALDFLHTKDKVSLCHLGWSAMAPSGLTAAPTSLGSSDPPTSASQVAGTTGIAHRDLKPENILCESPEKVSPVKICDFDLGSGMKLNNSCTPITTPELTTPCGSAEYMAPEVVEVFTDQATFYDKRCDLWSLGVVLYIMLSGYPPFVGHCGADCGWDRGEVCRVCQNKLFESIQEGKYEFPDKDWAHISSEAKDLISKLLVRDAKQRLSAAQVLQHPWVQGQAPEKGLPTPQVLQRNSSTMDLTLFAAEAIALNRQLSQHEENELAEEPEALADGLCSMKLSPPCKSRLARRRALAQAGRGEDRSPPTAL
UniProt P25774, sequence (whole entry, looked up): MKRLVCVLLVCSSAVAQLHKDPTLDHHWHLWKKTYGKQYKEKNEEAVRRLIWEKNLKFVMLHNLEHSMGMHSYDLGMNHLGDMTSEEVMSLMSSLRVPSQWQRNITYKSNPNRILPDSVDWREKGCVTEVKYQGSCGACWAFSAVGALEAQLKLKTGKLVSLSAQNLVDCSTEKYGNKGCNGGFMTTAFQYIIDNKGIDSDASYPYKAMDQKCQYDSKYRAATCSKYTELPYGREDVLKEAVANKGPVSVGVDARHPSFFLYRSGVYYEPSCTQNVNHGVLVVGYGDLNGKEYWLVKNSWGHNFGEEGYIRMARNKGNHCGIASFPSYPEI

Structure (SMILES)	target	assay	test system	conditions	how to read	remaining activity
Cn1cc(-c2ccccc2)c2ccc(-c3ccsc3)nc21	gag-pol integrase	strand transfer	HIV-1	10 µM	–	58.4%
COc1cc(F)ccc1-c1ncnc(Nc2cccc(C[S@](C)(=N)=O)c2)n1	MARK1 (Homo sapiens, UniProt Q9P0L2)	kinase activity	–	10 µM, with: 10 µM ATP	–	93%
Cc1cccc(C)c1C(=O)OCC(=O)[C@H](CCCCN)NC(=O)[C@H](CCCNC(=N)N)NC(=O)OCc1ccccc1	Procathepsin L (Mus musculus, UniProt P06797)	inhibitor	–	0.01 µM, room temperature, with: AMC substrate	–	100%
Cc1ccc(-c2ccc3c(-c4ccccc4)cn(C)c3n2)cc1	gag-pol integrase	strand transfer	HIV-1	10 µM	–	48.3%
C[C@H]1[C@H](OC(=O)CCC(=O)O)O[C@@H]2O[C@@]3(C)CC[C@H]4[C@H](C)CC[C@@H]1[C@@]24OO3	Non-structural polyprotein pORF1, RNA-dependent RNA polymerase (Hepatitis E virus genotype 1, UniProt P33424)	polymerase activity, inhibitor, colorimetric	–	39 µM	reference: untreated	61.1%
COc1cc(/C=C/C(=O)CC(=O)/C=C/c2ccc(O)c(OC)c2)ccc1O	PINK1	–	–	1 µM	reference: DMSO	106%
O=C1NC(=O)/C(=C/c2ccc(-c3ccc(F)cc3O)o2)S1	MAPKAPK3 (Homo sapiens, UniProt Q16644)	enzyme activity	–	10 µM	–	63%
Cc1cc(Cl)cc(C)c1OCC(=O)NC(C)C	SLC6A19	FLIPR membrane potential	CHO-BC	30 µM, unit not given	reference: uninhibited	0.921 and 0.951 and 0.889 and 0.84 and 0.91
COc1cc(N2CCN(C)CC2)ccc1Nc1nc(N)n(C(=O)NCc2c(Cl)cccc2Cl)n1	HIPK4 (Homo sapiens, UniProt Q8NE63)	enzyme activity	–	10 µM	reference: control	8.1%
c1cnc2ccc(Nc3nc(NC4CC4)c4nc[nH]c4n3)cc2c1	MAPK12 (Homo sapiens, UniProt P53778)	kinase activity, inhibitor, SelectScreen kinase profiling	–	1 µM	reference: control	89%
C=CC(=O)N1CCC[C@@H](n2nc(-c3ccc(Oc4ccccc4)cc3)c3c(N)ncnc32)C1	FER	–	–	10 µM	–	3.63%
Cc1ccc(NC(=O)c2ccc(C)c(C(F)(F)F)c2)cc1C#Cc1nn(C2CCC(O)CC2)c2ncnc(N)c12 (stereo not drawn)	MLCK, human	–	–	10 µM, with: 10 µM ATP	–	62%
CNc1ncc2c(/C=C/C(=O)N3CCC(OC)CC3)nn(Cc3cccc(C(F)(F)F)c3)c2n1	MKNK2 (Homo sapiens, UniProt Q9HBH9)	kinase activity, inhibitor	–	1 µM	reference: untreated control	111%
COc1ccc(F)cc1C(=O)NCc1ccc(-c2nn([C@@H](C)C(F)(F)F)c(N)c2C(N)=O)cc1	PEAK1 (Homo sapiens, UniProt Q9H792)	kinase activity, inhibitor, HotSpot radiometric	–	100 nM, with: ATP 10 µM	–	89%
COc1cc(N2CCN(C)CC2)ccc1Nc1nc(N)n(C(=S)NCc2c(Cl)cccc2Cl)n1	MKNK1 (Homo sapiens, UniProt Q9BUB5)	enzyme activity	–	10 µM	reference: control	0.25%
COc1ccc(-c2ccc3c(-c4ccc(F)cc4F)cn(C)c3n2)cc1	gag-pol integrase	strand transfer	HIV-1	10 µM	–	28.4%
Cc1ccc(C[C@H](NC(=O)OC(C)(C)C)C(=O)NC/C=C/S(=O)(=O)c2ccccc2)cc1	Cathepsin S (CTSS, Homo sapiens, UniProt P25774)	inhibitor	–	5 µM, 60 min, with: Z-Phe-Arg-AMC	reference: uninhibited control	< 1%
Cc1ccc(-c2cn(C)c3nc(Cl)ccc23)cc1	gag-pol integrase	strand transfer	HIV-1	10 µM	–	59%
NC/C(=C\F)COc1cccc(Cn2c(=S)[nH]c(=O)c3[nH]cnc32)c1	Peroxidasin homolog (PXDN, Homo sapiens, UniProt Q92626)	enzyme activity, inhibitor, Amplex UltraRed	–	5 µM	reference: control	69.7% and 69.6%
COc1cc(-c2cncc3c2CN(C)Cc2cc(N4CCNCC4)ccc2-3)cc(OC)c1OC	GRK2	kinase activity	–	1 µM, human enzyme, with: ATP 10 µM	reference: DMSO control	92%
Cc1cc(Nc2cc(N3CCN(C)CC3)nc(Sc3ccc(NC(=O)C4CC4)cc3)n2)[nH]n1	FER	kinase activity, KinaseProfiler	–	0.03 µM, species human	reference: control	100%
O=C(NC1CCC1)c1ccc2nc(-c3cccc(NS(=O)(=O)NCCN4CCCCC4)c3)cn2c1	GRK2	enzyme activity	–	10 µM	–	100%
O=C(O)c1ccc(Nc2ncc3c(n2)-c2ccc(Cl)cc2C(c2c(F)cccc2F)=NC3)cc1	Fms(h)	kinase activity	–	1 µM	–	95%
Cn1cc(-c2ccccc2)c2ccc(-c3cc(C(F)(F)F)cc(C(F)(F)F)c3)nc21	gag-pol integrase	strand transfer	HIV-1	10 µM	–	63.6%
Cc1cc(OCC(=O)NC(C)C)cc(C)c1Cl	SLC6A19	FLIPR membrane potential	CHO-BC	30 µM, unit not given	reference: uninhibited	0.829 and 0.643 and 0.57 and 0.651 and 0.779
Cn1cc(-c2ccc(F)cc2)c2ccc(Cl)nc21	gag-pol integrase	strand transfer	HIV-1	10 µM	–	61.7%
COc1cc(Nc2ncc3c(n2)-c2ccc(Cl)cc2C(c2c(F)cccc2OC)=NC3)ccc1C(=O)O	EPHA1	kinase activity	–	1 µM	–	25%

For quick reference, copied from above:
Structure (SMILES)	target	assay	test system	conditions	how to read	remaining activity
CNc1ncc2c(/C=C/C(=O)N3CCC(OC)CC3)nn(Cc3cccc(C(F)(F)F)c3)c2n1	MKNK2 (Homo sapiens, UniProt Q9HBH9)	kinase activity, inhibitor	–	1 µM	reference: untreated control	111%
